{"data": "Results from different studies", "note": "Every numbered part comes from another study and shows a few of its results, in no order."}
{"data": "Set 1", "target": "RNA binding protein fox-1 homolog 2, RRM domain, GST-SBP tag (RBFOX2, Homo sapiens, UniProt O43251-10, residues 100-194)", "method": "RNA Bind-n-Seq", "form": "RNA", "matrix": "in vitro", "concentration": "365 nM", "notes": "natural RNA segment, single round, ends assumed", "relative to": "no-protein control", "reading": "higher = stronger binding", "Target sequence (chain)": "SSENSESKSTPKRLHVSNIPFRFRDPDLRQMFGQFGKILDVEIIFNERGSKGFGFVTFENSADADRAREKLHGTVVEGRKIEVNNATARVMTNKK"}
{"Oligonucleotide": "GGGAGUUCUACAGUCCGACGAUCUUCCCUCCCAGCUUCAAGCCGAACACACGCUGUGGCCACCAAGACCUGGGGCGACAGGAGAACCGGUCCUCUCUCUGACGGGGUGGCAUUUGGCCUUGAACAAAACCAAGUGGAAUUCUCGGGUGCCAA", "RBNS enrichment (R)": 0.41}
{"Oligonucleotide": "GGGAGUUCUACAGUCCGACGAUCAAACAGUUCUUACUCCUGUGUUUUAGCAAAAAUUUAUCAAACAAAAUAAAUGGUACUUAUGUUUUCUAAGUCCUUCUACUGGUGUGUCUUUUUCCACGUAAUGGUAGAAAUGGAAUUCUCGGGUGCCAA", "RBNS enrichment (R)": 0.909}
{"Oligonucleotide": "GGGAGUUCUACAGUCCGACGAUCGUAUGCUAAGGGGAAAAAAAAAUUUAGGAUAGAAAACUUGAGCAUUGUAUAUGUUUCCUGGAUGUCCUUGACGGGUACAAACACUGAUGUGGUGGUAGCCAUCCCACAUGUGGAAUUCUCGGGUGCCAA", "RBNS enrichment (R)": 1.07}
{"Oligonucleotide": "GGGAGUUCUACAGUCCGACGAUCCACAAUGAAAGGUGGAACUGCACUUCUGUUGAGCUCUCAGUUCUGCGGAAUUUGGUACUCAUUACCGUAUUCGCCGUACUAAGUUGGUUUCUGUUAGUCUUAACAGUCUGUGGAAUUCUCGGGUGCCAA", "RBNS enrichment (R)": 0.22}
{"Oligonucleotide": "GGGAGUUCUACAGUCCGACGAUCUGAGACCUGCUCAUCGUGCGACUGUAACCCUUCAGUCCUAGCUGCUUUUGAAGAGGUUUCCAUUUUUAUUUAAAUUGCUAAUGGAUCAGAGAACAAUUGUUUAUUUUUUCUGGAAUUCUCGGGUGCCAA", "RBNS enrichment (R)": 0.755}
{"Oligonucleotide": "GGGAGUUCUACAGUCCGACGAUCUCCAGCUGGGUGUCUGGAGGGAAGAGGGCAGAGGAGGGUCAUGUCCCUUCAGCUGGGGGAGGGGCCCAGUGAGCUCCACGUGGCUUUUUCCCAAAGGGAGCAAGAGGGAAUGGAAUUCUCGGGUGCCAA", "RBNS enrichment (R)": 0.463}
{"Oligonucleotide": "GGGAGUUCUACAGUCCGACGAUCCAAAAAUUAAUGGUUUAGAUAUAUUUAUAAUAAACUGAUUUAAACUUUUUCUAUAAGAAGAAAAAUUAAGACCACUUAUUUGAAAACAAAGAUGAAGUCUCACCUUCCAGUGGAAUUCUCGGGUGCCAA", "RBNS enrichment (R)": 0.614}
{"Oligonucleotide": "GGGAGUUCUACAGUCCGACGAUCACUGAUAAGGGGCCCUAGGGUACAGGGUGCUGCCCAGCAGGUCGCCACCGAGUGUCUUCUCAUUUUAUUUCAGCUCCAUUUUGCCCAUAGAUGGGCAGAGGGGUGAGAUUUGGAAUUCUCGGGUGCCAA", "RBNS enrichment (R)": 0.394}
{"data": "Set 2", "target": "Histone acetyltransferase KAT6A, winged helix 2, GST fusion (KAT6A, Homo sapiens, UniProt Q92794, residues 85-181)", "method": "protein binding microarray", "form": "double-stranded DNA, one strand shown", "matrix": "in vitro", "concentration": "not given", "notes": "8-mer, flanks averaged, mean of 2 arrays, mostly near background", "relative to": "not given", "reading": "higher = stronger binding", "Target sequence (chain)": "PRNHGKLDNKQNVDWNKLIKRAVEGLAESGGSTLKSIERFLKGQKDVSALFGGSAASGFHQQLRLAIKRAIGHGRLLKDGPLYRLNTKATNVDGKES"}
{"Oligonucleotide": "CCATGTCC", "E-score": -0.0942}
{"Oligonucleotide": "CTGCTTAC", "E-score": -0.0549}
{"Oligonucleotide": "AACTCGTA", "E-score": -0.00187}
{"Oligonucleotide": "TGAATGCA", "E-score": 0.105}
{"Oligonucleotide": "AACCAAGT", "E-score": -0.11}
{"Oligonucleotide": "AATGCAGG", "E-score": 0.0871}
{"Oligonucleotide": "GGTTAATA", "E-score": 0.13}
{"Oligonucleotide": "ATACCTCA", "E-score": 0.0449}
{"Oligonucleotide": "ATGTCTTA", "E-score": -0.177}
{"Oligonucleotide": "GAATTGCA", "E-score": -0.00496}
{"Oligonucleotide": "AAGGGATG", "E-score": -0.0999}
{"Oligonucleotide": "CACTCCAC", "E-score": -0.0459}
{"Oligonucleotide": "CCCCGGGG", "E-score": 0.197}
{"Oligonucleotide": "CCCGATAC", "E-score": 0.147}
{"Oligonucleotide": "TCTAACAA", "E-score": -0.0162}
{"Oligonucleotide": "TCGACCCA", "E-score": 0.00692}
{"Oligonucleotide": "CCTTTTGA", "E-score": -0.0247}
{"Oligonucleotide": "CGGACTTC", "E-score": -0.14}
{"Oligonucleotide": "CCGATTGC", "E-score": 0.0492}
{"Oligonucleotide": "CAGCTTGC", "E-score": 0.092}
{"Oligonucleotide": "TGAATACA", "E-score": 0.114}
{"Oligonucleotide": "CCTGCCAA", "E-score": -0.116}
{"Oligonucleotide": "TATGTGGA", "E-score": -0.0274}
{"Oligonucleotide": "ATAGATAC", "E-score": -0.149}
{"Oligonucleotide": "TAGGCTAA", "E-score": -0.132}
{"data": "Set 3", "target": "Sal-like protein 4, full length isoform B (SALL4, Homo sapiens, UniProt Q9UJQ4-2, residues 1-616)", "method": "universal PBM", "form": "double-stranded DNA, one strand shown", "matrix": "in vitro", "concentration": "not given", "notes": "8-mer, flanks averaged, mean of replicates", "reading": "higher = stronger binding"}
{"Oligonucleotide": "AAGGGGAT", "E-score": -0.0174}
{"Oligonucleotide": "CCAGCCGC", "E-score": -0.319}
{"Oligonucleotide": "AAGGCTAA", "E-score": 0.0125}
{"Oligonucleotide": "CCCCGTTA", "E-score": -0.114}
{"Oligonucleotide": "AAAGAATG", "E-score": 0.241}
{"Oligonucleotide": "ATGCCTTC", "E-score": -0.116}
{"Oligonucleotide": "AATCCCCT", "E-score": -0.106}
{"Oligonucleotide": "GCCGTTGA", "E-score": 0.022}
{"Oligonucleotide": "CCGACGTC", "E-score": -0.26}
{"Oligonucleotide": "CCTGCAGA", "E-score": -0.125}
{"Oligonucleotide": "GGAGTCAC", "E-score": -0.22}
{"Oligonucleotide": "TCCAATAA", "E-score": 0.296}
{"Oligonucleotide": "CCCTTAAC", "E-score": -0.091}
{"Oligonucleotide": "AGTCATTA", "E-score": 0.157}
{"Oligonucleotide": "GTCAGGCA", "E-score": -0.0878}
{"Oligonucleotide": "ATTTGGGC", "E-score": 0.0134}
{"Oligonucleotide": "GAATGCCA", "E-score": 0.029}
{"Oligonucleotide": "CGTATAGA", "E-score": 0.205}
{"data": "Set 4", "target": "RING finger protein unkempt homolog, zinc fingers 1-6, GST-SBP tag (UNK, Homo sapiens, UniProt Q9C0B0, residues 30-357)", "method": "RNA Bind-n-Seq", "form": "RNA", "matrix": "in vitro", "concentration": "not given", "notes": "RNA with constant flanks, human-mouse chimeric sites, ends assumed", "relative to": "input RNA pool", "reading": "higher = stronger binding", "sequence of UniProt Q9C0B0 (30-357, looked up)": "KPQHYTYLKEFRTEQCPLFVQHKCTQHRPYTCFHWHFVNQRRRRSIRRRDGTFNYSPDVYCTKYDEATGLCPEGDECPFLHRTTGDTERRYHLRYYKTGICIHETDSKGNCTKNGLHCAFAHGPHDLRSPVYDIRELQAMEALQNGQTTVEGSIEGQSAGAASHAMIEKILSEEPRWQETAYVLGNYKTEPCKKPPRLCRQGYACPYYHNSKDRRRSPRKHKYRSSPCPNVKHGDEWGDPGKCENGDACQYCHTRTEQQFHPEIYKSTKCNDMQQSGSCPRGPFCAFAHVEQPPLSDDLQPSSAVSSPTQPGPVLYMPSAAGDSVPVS"}
{"Oligonucleotide": "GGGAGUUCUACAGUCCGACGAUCUGACAAGGGCACUGCAGAGCCAUGCCUUUCUUGGACAUACAGAAAAAGCUGGGCAUCAACAUAGAUCGGCACUUUAUGUUCCUAAGCGCAGAACAGCCCUAUAAGAACGCCGCUCGGUGCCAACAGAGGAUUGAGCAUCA", "bound/input enrichment [ratio]": 0.107}
{"Oligonucleotide": "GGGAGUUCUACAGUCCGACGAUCCGGAAGUUCUUGAUUUAUCAUUUUUCUCUUUUCUUUCUUUCCUUUAGGAAAAGCCUAAAGAUUAGGUUGUAAGAAAAACAGAAGCCAUGUUUCGAAGACCUGUGUUAAUUACAGGUAGUCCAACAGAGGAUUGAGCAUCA", "bound/input enrichment [ratio]": 0.144}
{"Oligonucleotide": "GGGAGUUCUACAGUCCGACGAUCAAAGAGAAACUAAAGCAACUAAUAGAGGAAGAGGAUUGCAAAGAGAAAUUUCAUAGAAAACUAGGAUUUAUUAGCAAACAUGAGUUAUAUUCCAGAGCGUCUCAGAAACCCCAGCCAAACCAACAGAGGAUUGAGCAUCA", "bound/input enrichment [ratio]": 9}
{"Oligonucleotide": "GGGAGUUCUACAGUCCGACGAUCAAAGCCCAAGUAUUUUGAAAAAACUCGAACAGAUUUGACAAGGGUAGCCAGCUUGGAGUCUAGCAACUUGCCAAUGUUGCUUACCAAUUUGGGGGCUGUUUUUCUUUUCUUCUUUCAAAUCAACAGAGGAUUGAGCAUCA", "bound/input enrichment [ratio]": 0.244}
{"Oligonucleotide": "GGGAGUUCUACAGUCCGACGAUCGCAAAGGAUGAUGAGGCGGCAGCUGUUGCACUUUCCUCCCUGAUUCAUGCUUUGGAUGAGUUAAACAUGGUCGCCAUCGUCCGAUAUGCUUAUGACAAAAGAUCUAAUCCUCAAGUUGGUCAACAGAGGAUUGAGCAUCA", "bound/input enrichment [ratio]": 0.103}
{"Oligonucleotide": "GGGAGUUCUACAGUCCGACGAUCAAUAGAGGAUCCACCUCCCAAAGUGCUGGGAGUAAAGGUGUGGCCACCACACCUAACUUGAUGGAUAUAUAUUUUUUUUAAUAUGAAUCUUCCUGUUCGUCCAGGGAGCAAGAACGGGUUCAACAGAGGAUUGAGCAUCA", "bound/input enrichment [ratio]": 1.34}
{"Oligonucleotide": "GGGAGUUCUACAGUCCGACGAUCGGCCUGGGACCGUCCUGGGCUAGUACAAAUAGCGGCAGUGGAGGCUCAGAGGAAAGUUUUGUUAGUGGAGGCAGUGGUAGAGGCCGUCAUGUACGGUCCUUUACUCGUAAAAAUCCUUCUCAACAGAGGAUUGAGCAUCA", "bound/input enrichment [ratio]": 0.192}
{"Oligonucleotide": "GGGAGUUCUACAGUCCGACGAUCGGCUGCUGGUGACUGUCCUGGAGUGGCCGUGUCACCGGCCGGAGCGCGGCCAGACUAAUUAUAGAAAAUGCCAAGUAGGAAGUUUGUUGAGGGUGAAGUGGUCAGAGGCCGAUGGCCUGGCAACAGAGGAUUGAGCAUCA", "bound/input enrichment [ratio]": 3.76}
{"note": "Excerpt of the above (set 3):"}
{"Oligonucleotide": "AATCCCCT", "E-score": -0.106}
{"Oligonucleotide": "ATGCCTTC", "E-score": -0.116}
{"Oligonucleotide": "CGTATAGA", "E-score": 0.205}
{"Oligonucleotide": "GTCAGGCA", "E-score": -0.0878}
{"Oligonucleotide": "TCCAATAA", "E-score": 0.296}
{"Oligonucleotide": "AGTCATTA", "E-score": 0.157}
{"Oligonucleotide": "CCCCGTTA", "E-score": -0.114}
{"Oligonucleotide": "GAATGCCA", "E-score": 0.029}
